Measured values of several laboratories.
Protocols differ between the studies behind these lines. ± marks the error that the study gave.

Structure (SMILES) | method | medium | time | pH | temperature | setting | logD
O=C(NC1CCCCC1)c1ncccc1O | miniaturised shake-flask | 1-octanol/water |  |  |  |  | 3.5
COc1cc2[nH]c(C)c(-c3ccc(C(F)(F)F)cc3)c(=O)c2cc1Cl | chromatographic |  |  | pH 7.4 |  |  | 2.4
CN(c1ccc(F)cc1)c1c(-c2cc(Cl)ccn2)nc2ccccn12 |  |  |  | pH 7.4 |  |  | > 4.2
O=C(O)c1cc(-c2ccc(-c3ccc(Cl)s3)cc2)c2ccc(-c3ccc(C(F)(F)F)cc3)cc2c1 | HPLC retention |  |  | pH 7.4 |  | chromatographic logD | 3.3
CCOC(=O)/C=C/C(=O)NNC(=O)CCc1ccccc1C(=O)N[C@H](C)c1cccc2ccccc12 |  |  |  |  |  |  | 3.3
Cc1ccc(N(C)c2ccc(NC(=O)CN(C)c3ccccc3N3CCCC3=O)cc2)cc1 | shake-flask |  |  |  |  |  | 4.6
COc1cc2[nH]c(C)c(-c3ccc(-c4ccccc4)cc3)c(=O)c2cc1Cl | chromatographic |  |  | pH 7.4 |  |  | 3.7
c1cc(-c2ccc3ncnc(Nc4ncco4)c3c2)cc(N2CC3CCC(C2)O3)c1 | shake flask | 1-octanol/phosphate buffer |  | pH 7.4 |  |  | > 3.6
O=C(O)c1c(O)c(-c2ccccc2)nc2ccccc12 | miniaturised shake-flask | 1-octanol/water |  |  |  |  | 0.6
Cc1cc(Nc2ccc(C(F)(F)F)cc2)c2ccccc2n1 |  |  |  |  |  |  | 3.8
CS(=O)(=O)c1ccc(C(=O)N2CCCCC2)cc1 | shake-flask | 1-octanol/water |  |  |  |  | 0.51
C[C@@H](NC(=O)c1ccccc1CCC(=O)NNC(=O)/C=C/C(=O)O)c1cccc2ccccc12 |  |  |  |  |  |  | -1.1
O=C(O)c1cc(-c2ccc(-c3ccncc3)cc2)c2ccc(-c3ccc(C(F)(F)F)cc3)cc2c1 | HPLC retention |  |  | pH 7.4 |  | chromatographic logD | 1.2
O=C(CCCCCCC(=O)Nc1ccccc1)NO |  | n-octanol/PBS | 4 h | pH 7.4 | 25 °C |  | 1.2
CCOC(=O)N1C[C@@H](c2ccc(Cl)cc2)N[C@@H](c2ccc(-c3ccccc3)cc2)C1 | shake-flask, 1-octanol/buffer |  |  | pH 7.4 |  |  | > 4.7
O=S(=O)(c1ccc(F)cc1)N1CCNCC1COc1ccc2ccccc2c1 (stereo not drawn) | experimental partition |  |  | pH 7.4 |  |  | 3.53 ± 0.07
CCOC(=O)N1C[C@@H](c2ccc(Cl)cc2)N[C@@H](c2ccc(C(=O)OC)cc2)C1 | shake-flask, 1-octanol/buffer |  |  | pH 7.4 |  |  | > 4.7
COc1cc([N+](=O)[O-])ccc1NC(=O)CN1CCOCC1 |  | octanol/buffer |  | pH 7.4 |  |  | 2.04
COc1cc2[nH]c(C)c(-c3ccc(OCc4ccccc4)cc3)c(=O)c2cc1Cl | chromatographic |  |  | pH 7.4 |  |  | 3.5
CCn1c(SCC(=O)Nc2ccccc2OC)nnc1-c1ccco1 |  | octanol/buffer |  | pH 7.4 |  |  | 2.47
COc1ccc([C@@H]2COC[C@H](c3ccc(C(C)(C)C)cc3)N2)cc1 | shake-flask, 1-octanol/buffer |  |  | pH 7.4 |  |  | > 4.7
Cc1cc(Cl)cc2sc(N(CCCn3ccnc3)C(=O)c3ccco3)nc12 |  |  |  |  |  |  | 3.83
O=C(O)CNC(=O)c1ncc(-c2cccc(F)c2)cc1O | miniaturised shake-flask | 1-octanol/water |  |  |  |  | -0.3
CNC(=O)/C=C/C(=O)NNC(=O)CCc1ccccc1C(=O)N[C@H](C)c1cccc2ccccc12 |  |  |  |  |  |  | 2.5
CCOC(=O)N1C[C@@H](c2ccc(C(C)(C)C)cc2)N[C@@H](C(CC)CC)C1 | shake-flask, 1-octanol/buffer |  |  | pH 7.4 |  |  | > 4.7
COc1ccc(-c2nnc(SCC(=O)Nc3c(F)cc(F)cc3Br)n2C)cc1 |  | octanol/buffer |  | pH 7.4 |  |  | 2.75

Structure (SMILES) | method | medium | time | pH | temperature | setting | logD
CCOC(=O)N1C[C@@H](c2ccc(Cl)cc2)N[C@@H](c2cc(Cl)cc(Cl)c2)C1 | shake-flask, 1-octanol/buffer |  |  | pH 7.4 |  |  | > 4.7
NC[C@H](NC(=O)c1ccc(-c2ccc(Br)cc2)cc1)C(=O)NO |  | octanol/buffer |  | pH 7.4 |  |  | 3.8
COc1cc2[nH]c(C)c(-c3c(F)cccc3F)c(=O)c2cc1Cl | chromatographic |  |  | pH 7.4 |  |  | 2.1
CN(CCCCCCNC(=O)CNc1cccc2c1C(=O)N(C1CCC(=O)NC1=O)C2=O)Cc1cn(Cc2ccc(C(=O)NO)cc2)c2ccccc12 (stereo not drawn) | HPLC-based method |  |  | pH 7.4 |  |  | 1.3
CC(C)OC(=O)/C=C/C(=O)NNC(=O)CCc1ccccc1C(=O)N[C@H](C)c1cccc2ccccc12 |  |  |  |  |  |  | 3.7
Cc1cnc(NC(=O)C2=C(O)c3ccccc3S(=O)(=O)N2C)s1 | miniaturised shake-flask | 1-octanol/water |  |  |  |  | 0.8
FC(F)(F)CN1CC(n2cc(Oc3ccn4nc(Cl)cc4n3)cn2)C1 |  |  |  | pH 7.4 |  |  | 2.46
FC(F)(F)c1cc(Nc2ncnc3ccc(-c4cccc(N5CCOCC5)c4)cc23)ccc1Cl | shake flask | 1-octanol/phosphate buffer |  | pH 7.4 |  |  | > 4.1
CCc1ccccc1NC(=O)CSc1nnc(-c2cccc(OC)c2)n1C |  | octanol/buffer |  | pH 7.4 |  |  | 2.76
Cc1ccc([C@H]2N[C@@H](c3ccc(C(F)(F)F)cc3)CO[C@@H]2C)cn1 | shake-flask, 1-octanol/buffer |  |  | pH 7.4 |  |  | > 4.7
CC(=O)Nc1ccc(S(=O)(=O)Nc2c(C)nn(-c3ccccc3)c2C)cc1 |  | octanol/buffer |  | pH 7.4 |  |  | 2.55
COc1cc2[nH]c(C)c(-c3ccccc3C)c(=O)c2cc1Cl | chromatographic |  |  | pH 7.4 |  |  | 2.5
C[C@H]1CN(c2cccc(-c3ccc4ncnc(Nc5ncco5)c4c3)c2)CCO1 | shake flask | 1-octanol/phosphate buffer |  | pH 7.4 |  |  | > 4.3
CCNC(=O)c1ncccc1O | miniaturised shake-flask | 1-octanol/water |  |  |  |  | 1.54
C[C@@H](NC(=O)c1ccccc1CCC(=O)NNC(=O)/C=C/C(=O)OC(C)(C)C)c1cccc2ccccc12 |  |  |  |  |  |  | 3.9
CCOC(=O)N1C[C@@H](C2CCCCC2)N[C@@H](c2ccc(-c3ccccc3)cc2)C1 | shake-flask, 1-octanol/buffer |  |  | pH 7.4 |  |  | > 4.7
O=C(NC1CCCCC1)c1nccc(Cl)c1O | miniaturised shake-flask | 1-octanol/water |  |  |  |  | 2.4
COc1cccc(OC)c1-c1cc(C(=O)NC2(C(=O)O)C3CC4CC(C3)CC2C4)nn1-c1ccc(C(=O)N(C)CCCN(C)CCCN(C)C(=O)CN2CCN(CC(=O)[O-])CCN(CC(=O)[O-])CCN(CC(=O)[O-])CC2)cc1C(C)C.[177Lu+3] (stereo not drawn) | radiometric | 1-octanol/PBS |  | pH 7.4 |  | 177Lu-labelled conjugate | -2.46 ± 0.03
Cc1ccc(Oc2ccc(NC(=O)CNc3ccccc3-n3cncn3)cc2)cc1 | shake-flask |  |  |  |  |  | 4.4
COc1cc2[nH]c(C)c(-c3ccc(N(C)C)nc3)c(=O)c2cc1Cl | chromatographic |  |  | pH 7.4 |  |  | 1.9
CCn1c(SCC(=O)Nc2cccc(C(C)=O)c2)nnc1-c1ccncc1 |  | octanol/buffer |  | pH 7.4 |  |  | 1.6
COc1cc2[nH]c(C)c(-c3ccco3)c(=O)c2cc1Cl | chromatographic |  |  | pH 7.4 |  |  | 2.1
COc1ccc(CC(NC(C)=O)c2ccc3cccnc3c2O)cc1OC (stereo not drawn) |  | octanol/buffer |  | pH 7.4 |  |  | 1.97
COc1cc2[nH]c(C)c(-c3ccc(S(=O)(=O)N(C)C)cc3)c(=O)c2cc1Cl | chromatographic |  |  | pH 7.4 |  |  | 2.2
Fc1ccc([C@@H]2COC[C@H](c3cccc(Br)c3)N2)cc1 | shake-flask, 1-octanol/buffer |  |  | pH 7.4 |  |  | > 4.7
